Assay results gathered from unrelated publications.
Parts stem from different laboratories: compare values within a part only.
UniProt P31152, sequence (whole entry, looked up): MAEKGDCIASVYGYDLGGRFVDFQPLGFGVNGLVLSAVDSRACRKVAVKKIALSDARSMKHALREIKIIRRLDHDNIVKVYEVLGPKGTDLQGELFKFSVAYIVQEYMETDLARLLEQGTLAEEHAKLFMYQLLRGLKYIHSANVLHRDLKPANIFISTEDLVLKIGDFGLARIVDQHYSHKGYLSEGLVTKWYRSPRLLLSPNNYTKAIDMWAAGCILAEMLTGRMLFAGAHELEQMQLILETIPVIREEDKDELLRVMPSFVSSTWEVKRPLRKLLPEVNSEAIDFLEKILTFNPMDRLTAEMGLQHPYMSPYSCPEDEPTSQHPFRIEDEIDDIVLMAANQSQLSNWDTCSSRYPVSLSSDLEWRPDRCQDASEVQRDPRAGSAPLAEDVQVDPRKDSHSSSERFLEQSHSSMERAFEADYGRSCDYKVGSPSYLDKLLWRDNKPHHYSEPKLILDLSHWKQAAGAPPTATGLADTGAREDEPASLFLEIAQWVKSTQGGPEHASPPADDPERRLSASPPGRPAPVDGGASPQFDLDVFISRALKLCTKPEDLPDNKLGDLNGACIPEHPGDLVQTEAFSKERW
UniProt O43353, sequence (whole entry, looked up): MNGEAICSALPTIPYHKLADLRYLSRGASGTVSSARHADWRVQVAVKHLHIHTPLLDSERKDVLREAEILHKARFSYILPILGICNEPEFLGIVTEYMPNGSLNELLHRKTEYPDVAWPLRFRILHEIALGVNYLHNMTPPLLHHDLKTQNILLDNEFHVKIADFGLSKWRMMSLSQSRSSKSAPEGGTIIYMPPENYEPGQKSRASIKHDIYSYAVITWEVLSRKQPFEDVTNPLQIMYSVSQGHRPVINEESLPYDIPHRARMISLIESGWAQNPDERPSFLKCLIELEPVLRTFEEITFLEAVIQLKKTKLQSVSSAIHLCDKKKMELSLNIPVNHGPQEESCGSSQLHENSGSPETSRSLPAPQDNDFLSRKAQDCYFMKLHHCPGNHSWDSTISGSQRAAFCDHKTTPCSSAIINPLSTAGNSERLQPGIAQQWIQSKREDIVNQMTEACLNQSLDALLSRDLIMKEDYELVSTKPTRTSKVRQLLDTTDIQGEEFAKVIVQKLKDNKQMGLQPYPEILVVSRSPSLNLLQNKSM
UniProt P54753, sequence (whole entry, looked up): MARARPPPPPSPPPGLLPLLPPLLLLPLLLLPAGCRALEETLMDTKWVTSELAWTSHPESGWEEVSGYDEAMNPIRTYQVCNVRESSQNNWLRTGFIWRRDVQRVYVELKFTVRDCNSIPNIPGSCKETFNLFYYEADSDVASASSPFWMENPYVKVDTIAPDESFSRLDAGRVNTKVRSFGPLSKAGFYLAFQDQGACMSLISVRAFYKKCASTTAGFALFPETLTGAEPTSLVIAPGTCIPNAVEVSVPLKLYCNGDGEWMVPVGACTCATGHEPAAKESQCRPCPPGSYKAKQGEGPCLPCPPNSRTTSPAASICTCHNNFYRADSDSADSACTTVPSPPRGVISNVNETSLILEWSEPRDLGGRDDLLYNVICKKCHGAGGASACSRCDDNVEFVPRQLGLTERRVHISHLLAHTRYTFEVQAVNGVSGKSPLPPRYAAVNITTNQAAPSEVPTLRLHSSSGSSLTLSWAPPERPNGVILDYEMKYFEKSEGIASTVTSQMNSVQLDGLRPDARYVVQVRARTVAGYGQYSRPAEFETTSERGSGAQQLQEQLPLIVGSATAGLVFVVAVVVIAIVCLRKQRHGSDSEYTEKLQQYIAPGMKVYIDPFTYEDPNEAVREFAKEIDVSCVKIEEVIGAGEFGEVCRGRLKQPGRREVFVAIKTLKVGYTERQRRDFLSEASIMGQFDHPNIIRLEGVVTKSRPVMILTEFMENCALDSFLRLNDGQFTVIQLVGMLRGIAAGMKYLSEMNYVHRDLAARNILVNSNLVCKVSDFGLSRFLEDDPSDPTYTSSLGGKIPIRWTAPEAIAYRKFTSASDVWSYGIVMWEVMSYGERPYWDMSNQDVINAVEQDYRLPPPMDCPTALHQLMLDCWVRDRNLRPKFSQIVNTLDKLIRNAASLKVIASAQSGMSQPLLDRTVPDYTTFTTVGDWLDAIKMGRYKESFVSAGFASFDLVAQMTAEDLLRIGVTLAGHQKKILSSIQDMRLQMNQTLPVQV
UniProt O14757, sequence (whole entry, looked up): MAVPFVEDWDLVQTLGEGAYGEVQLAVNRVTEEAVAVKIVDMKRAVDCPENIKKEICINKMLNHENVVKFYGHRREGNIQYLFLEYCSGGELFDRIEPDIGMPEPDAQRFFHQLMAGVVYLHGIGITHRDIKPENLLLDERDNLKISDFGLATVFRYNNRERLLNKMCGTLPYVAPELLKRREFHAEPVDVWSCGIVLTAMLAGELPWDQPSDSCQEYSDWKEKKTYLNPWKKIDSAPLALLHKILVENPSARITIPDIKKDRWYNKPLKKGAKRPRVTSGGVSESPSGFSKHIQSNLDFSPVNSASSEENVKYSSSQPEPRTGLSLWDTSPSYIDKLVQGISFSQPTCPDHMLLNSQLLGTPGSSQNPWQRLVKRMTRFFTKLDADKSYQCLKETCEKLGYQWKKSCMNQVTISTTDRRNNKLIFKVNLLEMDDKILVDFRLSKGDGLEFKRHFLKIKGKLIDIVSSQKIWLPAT
UniProt Q14289, sequence (whole entry, looked up): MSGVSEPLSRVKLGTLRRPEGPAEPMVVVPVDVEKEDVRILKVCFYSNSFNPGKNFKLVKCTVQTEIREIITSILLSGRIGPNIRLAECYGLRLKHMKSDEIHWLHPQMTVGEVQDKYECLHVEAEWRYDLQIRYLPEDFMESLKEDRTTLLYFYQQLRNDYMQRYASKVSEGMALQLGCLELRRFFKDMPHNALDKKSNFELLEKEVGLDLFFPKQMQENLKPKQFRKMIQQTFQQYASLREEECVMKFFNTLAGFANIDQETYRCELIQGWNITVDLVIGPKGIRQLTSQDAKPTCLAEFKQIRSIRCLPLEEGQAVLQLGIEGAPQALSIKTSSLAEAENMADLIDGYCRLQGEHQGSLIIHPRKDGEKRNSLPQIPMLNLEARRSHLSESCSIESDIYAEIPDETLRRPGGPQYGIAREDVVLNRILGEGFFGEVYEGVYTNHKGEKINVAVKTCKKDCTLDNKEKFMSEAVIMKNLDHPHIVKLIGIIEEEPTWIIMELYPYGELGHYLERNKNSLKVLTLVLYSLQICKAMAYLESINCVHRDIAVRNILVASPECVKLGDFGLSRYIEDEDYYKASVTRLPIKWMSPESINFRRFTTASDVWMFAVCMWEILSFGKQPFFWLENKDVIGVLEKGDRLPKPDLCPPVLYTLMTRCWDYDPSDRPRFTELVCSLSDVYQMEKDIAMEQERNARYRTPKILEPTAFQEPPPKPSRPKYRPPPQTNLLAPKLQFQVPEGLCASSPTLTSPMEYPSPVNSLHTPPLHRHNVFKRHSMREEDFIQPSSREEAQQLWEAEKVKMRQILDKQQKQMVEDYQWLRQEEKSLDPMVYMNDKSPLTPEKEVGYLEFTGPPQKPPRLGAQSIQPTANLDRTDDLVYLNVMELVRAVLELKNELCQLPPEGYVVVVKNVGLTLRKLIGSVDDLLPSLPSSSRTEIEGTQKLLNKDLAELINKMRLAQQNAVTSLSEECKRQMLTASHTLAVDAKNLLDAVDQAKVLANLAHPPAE
UniProt O00141, sequence (whole entry, looked up): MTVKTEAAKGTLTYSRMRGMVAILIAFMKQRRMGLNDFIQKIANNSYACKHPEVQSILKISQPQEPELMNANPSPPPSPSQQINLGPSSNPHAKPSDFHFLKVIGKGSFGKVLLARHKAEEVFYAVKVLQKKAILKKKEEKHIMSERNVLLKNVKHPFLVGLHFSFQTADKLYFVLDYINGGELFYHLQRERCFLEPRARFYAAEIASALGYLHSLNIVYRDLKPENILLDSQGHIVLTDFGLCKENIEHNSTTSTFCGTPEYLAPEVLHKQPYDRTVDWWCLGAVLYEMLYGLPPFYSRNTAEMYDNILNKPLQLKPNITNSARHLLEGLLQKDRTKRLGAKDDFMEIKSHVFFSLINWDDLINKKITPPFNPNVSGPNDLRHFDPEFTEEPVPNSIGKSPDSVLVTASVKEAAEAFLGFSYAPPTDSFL
UniProt O94768, sequence (whole entry, looked up): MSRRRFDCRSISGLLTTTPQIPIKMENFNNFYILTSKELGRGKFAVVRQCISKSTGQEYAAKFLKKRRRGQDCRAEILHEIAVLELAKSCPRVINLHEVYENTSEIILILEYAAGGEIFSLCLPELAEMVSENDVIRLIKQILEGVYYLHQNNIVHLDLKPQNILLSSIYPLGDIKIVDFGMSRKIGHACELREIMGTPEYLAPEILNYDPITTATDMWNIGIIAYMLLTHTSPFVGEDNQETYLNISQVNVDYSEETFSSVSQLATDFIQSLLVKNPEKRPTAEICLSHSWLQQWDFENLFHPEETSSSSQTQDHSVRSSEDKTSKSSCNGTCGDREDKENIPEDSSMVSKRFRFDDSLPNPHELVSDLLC

Sample 1 — organism: Sarcocystis neurona; effect on: parasite growth; concentration: 10 µM; time: 96 h; setting: second screen; reference: untreated
| SMILES | log2 fold change |
| --- | --- |
| CCN(CC)CCOc1ccc(C(=C(Cl)c2ccccc2)c2ccccc2)cc1 | 0.13 |
| C=CC1=C(C(=O)O)N2C(=O)[C@@H](NC(=O)/C(=N\OCC(=O)O)c3csc(N)n3)[C@H]2SC1 | 0.11 |
| CCCOc1ccc(C(=O)OCCN(CC)CC)cc1N | 0.36 |
| CN(C)[C@@H]1C(O)=C(C(N)=O)C(=O)[C@@]2(O)C(O)=C3C(=O)c4c(O)ccc(Cl)c4[C@@H](O)[C@H]3C[C@@H]12 | 0.0324 |
| CN1[C@@H]2C[C@@H](OC(=O)[C@H](CO)c3ccccc3)C[C@H]1[C@@H]1O[C@@H]12 | 0.28 |
| C[C@]12C=CC(=O)C=C1CC[C@@H]1[C@@H]2[C@@H](O)C[C@@]2(C)[C@H]1CC[C@]2(O)C(=O)CO | 0.36 |
| COc1cc(-c2ccc(=O)[nH]n2)ccc1OC(F)F | 0.55 |
| O=C1Nc2ccc(Cl)cc2[C@@](C#CC2CC2)(C(F)(F)F)O1 | -0.29 |
| O=c1n(CCCN2CCN(c3cccc(Cl)c3)CC2)nc2ccccn12 | 0.62 |
| COc1ccc(CC2c3cc(OC)c(OC)cc3CC[N+]2(C)CCC(=O)OCCCCCOC(=O)CC[N+]2(C)CCc3cc(OC)c(OC)cc3C2Cc2ccc(OC)c(OC)c2)cc1OC (stereo not shown) | 0.00192 |
| Clc1ccc(COC(Cn2ccnc2)c2ccc(Cl)cc2Cl)cc1 (stereo not shown) | -0.1 |

Sample 2 — host: mouse; medium: microsomes or S9; concentration: 2 µM; time: 0.5 h
| Structure (SMILES) | remaining compound [%] |
| --- | --- |
| CC(C)=CCn1c(CO)nc2c1c(=O)n(C)c(=O)n2C | 65.7 |
| Cc1nc2c(c3c(n2CC2CCO2)CCCC3)c(-c2ccc(Cl)cc2)c1[C@H](OC(C)(C)C)C(=O)O (stereo partly shown) | 29.5 |
| CC(Oc1cc(-n2nc3c(c2Cl)CCCC3)c(F)cc1Cl)C(=O)NCCO (stereo not shown) | 33.6 |
| CC(C)c1nc(NC(=O)c2cc(-c3ccco3)n[nH]2)n[nH]1 | 48.6 |
| O=C(Nc1ccc(-c2nc3ccccc3[nH]2)cc1)c1ccnc(-n2cnnc2)c1 | 99.1 |
| C=CCn1c(CN2C(=O)c3cccc4cccc(c34)C2=O)nnc1SCC(=O)OCC | 99.2 |
| Cc1cc(C)n2nc(C(=O)N3CCCC34CC=CC4)cc2n1 | 45.2 |
| Cc1ccc(C(O)(c2ccccc2)c2cnc(C(C)C)n2C)cc1 (stereo not shown) | 2.08 |
| CC1CCC(NS(=O)(=O)CC(=O)N2CCOCC2(C)C)CC1 (stereo not shown) | 1.34 |
| O=c1c(I)coc2cc(OC3CCCCO3)ccc12 (stereo not shown) | 62.9 |
| CCOc1ccc(S(=O)(=O)N2CCC3(CC2)Nc2ccccc2-n2cccc23)cc1 | 0.303 |
| CCOC(=O)c1c(-c2ccccc2)noc1-c1c[nH]nn1 | 99 |
| COc1cc(=O)[nH]cc1C(=O)N1CCC(=O)N2CCCC21 (stereo not shown) | > 99 |
| Cc1cc(C(=O)NCCCN2CCCC2=O)cs1 | 50.6 |
| O=C(C1CC(=O)N(c2n[nH]c3cc(Br)ccc23)C1)N1CCCC1 (stereo not shown) | > 99 |
| Cc1cc(C)cc(-n2ncc3c(=O)n(CC(=O)c4cc(C)[nH]c4C)cnc32)c1 | 98.2 |

Sample 3 — effect on: cell-free assay; method: competition with immobilised ligand; concentration: 1 µM
Structure (SMILES): CN(C)c1ncnc(-c2ccc3nc(Nc4cc(CN5CCN(C(=O)CC(F)(F)F)CC5)ccn4)[nH]c3c2)c1Cl
| target | remaining binding |
| --- | --- |
| Phosphatidylinositol 4-kinase beta (PI4KB, Homo sapiens, UniProt Q9UBF8) | 100% |
| Ankyrin repeat and protein kinase domain-containing protein 1 (ANKK1, Homo sapiens, UniProt Q8NFD2) | 57% |
| Phosphatidylinositol 4,5-bisphosphate 3-kinase catalytic subunit beta isoform (PIK3CB, Homo sapiens, UniProt P42338) | 82% |
| Tyrosine-protein kinase receptor TYRO3 (TYRO3, Homo sapiens, UniProt Q06418) | 100% |
| Ephrin type-B receptor 3 (EPHB3, Homo sapiens, UniProt P54753) | 100% |
| Serine/threonine-protein kinase Sgk1 (SGK1, Homo sapiens, UniProt O00141) | 37% |
| Phosphatidylinositol 4-phosphate 5-kinase type-1 alpha (PIP5K1A, Homo sapiens, UniProt Q99755) | 96% |
| Protein-tyrosine kinase 2-beta (PTK2B, Homo sapiens, UniProt Q14289) | 85% |
| Receptor-interacting serine/threonine-protein kinase 2 (RIPK2, Homo sapiens, UniProt O43353) | 37% |
| Insulin-like growth factor 1 receptor (IGF1R, Homo sapiens, UniProt P08069) | 100% |
| Glycogen synthase kinase-3 alpha (GSK3A, Homo sapiens, UniProt P49840) | 75% |
| Mitogen-activated protein kinase 4 (MAPK4, Homo sapiens, UniProt P31152) | 100% |
| Serine/threonine-protein kinase PRP4 homolog (PRPF4B, Homo sapiens, UniProt Q13523) | 100% |
| Serine/threonine-protein kinase 17B (STK17B, Homo sapiens, UniProt O94768) | 52% |
| Tyrosine-protein kinase JAK1, JH2 (JAK1, Homo sapiens, UniProt P23458) | 68% |
| LIM domain kinase 1 (LIMK1, Homo sapiens, UniProt P53667) | 100% |
| Mitogen-activated protein kinase 3 (MAPK3, Homo sapiens, UniProt P27361) | 100% |
| Membrane-associated tyrosine- and threonine-specific cdc2-inhibitory kinase (PKMYT1, Homo sapiens, UniProt Q99640) | 75% |
| Ephrin type-B receptor 6 (EPHB6, Homo sapiens, UniProt O15197) | 69% |
| Serine/threonine-protein kinase Chk1 (CHEK1, Homo sapiens, UniProt O14757) | 97% |
| Phosphatidylinositol 4,5-bisphosphate 3-kinase catalytic subunit alpha isoform (PIK3CA, Homo sapiens, UniProt P42336, H1047L) | 61% |
| Serine/threonine-protein kinase B-raf (BRAF, Homo sapiens, UniProt P15056) | 83% |
| ALK tyrosine kinase receptor (ALK, Homo sapiens, UniProt Q9UM73) | 75% |
| Focal adhesion kinase 1 (PTK2, Homo sapiens, UniProt Q05397) | 100% |

Sample 4 — effect on: enzyme activity; action: inhibitor; concentration: 0.5 µM; reference: control
Target: Serine/threonine-protein kinase PAK 1 (PAK1, Homo sapiens, UniProt Q13153)
UniProt Q13153, sequence (whole entry, looked up): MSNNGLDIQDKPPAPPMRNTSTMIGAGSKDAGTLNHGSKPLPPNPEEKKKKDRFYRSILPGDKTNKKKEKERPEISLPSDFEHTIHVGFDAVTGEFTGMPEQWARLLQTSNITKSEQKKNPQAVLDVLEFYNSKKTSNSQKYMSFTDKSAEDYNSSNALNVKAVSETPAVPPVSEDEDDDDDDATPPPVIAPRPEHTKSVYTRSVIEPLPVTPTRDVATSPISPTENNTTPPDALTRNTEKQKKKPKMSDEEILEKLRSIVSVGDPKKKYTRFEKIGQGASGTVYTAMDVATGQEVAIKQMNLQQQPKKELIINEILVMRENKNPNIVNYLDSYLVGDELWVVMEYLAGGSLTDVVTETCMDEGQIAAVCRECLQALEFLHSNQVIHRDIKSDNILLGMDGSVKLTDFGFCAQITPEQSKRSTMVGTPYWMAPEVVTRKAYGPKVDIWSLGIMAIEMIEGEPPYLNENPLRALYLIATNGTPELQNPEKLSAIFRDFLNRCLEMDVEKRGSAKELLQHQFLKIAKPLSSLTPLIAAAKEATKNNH
| SMILES | remaining activity [%] |
| --- | --- |
| COc1cc2c(Nc3ccc(Br)cc3F)ncnc2cc1OCC1CCN(C)CC1 | 108 |
| CNc1cc2c(Nc3cccc(Br)c3)ncnc2cn1 | 94.9 |
| O=C1c2ccccc2-c2nc3nnnn3nc21 | 96.1 |
| O=C1NC(=O)/C(=C/c2ccc3c(c2)OC(F)(F)O3)S1 | 93.3 |
| COc1cc2c(N3CCN(C(=O)Nc4ccc(OC(C)C)cc4)CC3)ncnc2cc1OCCCN1CCCCC1 | 107 |
| c1cc(-c2cnn3cc(-c4ccc(OCCN5CCCCC5)cc4)cnc23)ccn1 | 89.8 |
| NC(=O)c1cccc(-c2cc(Nc3ccc(OC(F)(F)F)cc3)ncn2)c1 | 93.3 |
| O=Nc1c(-c2c(O)[nH]c3ccccc23)[nH]c2ccccc12 | 86.1 |
| CC(C)N(CCC(=O)c1ccc2ccccc2c1)Cc1ccccc1 | 98.3 |
| FC(F)(F)c1ccc(/C=C/c2nc(COc3ccc(CCCCn4ccnn4)cc3)co2)cc1 | 104 |
| CCCCc1c(-c2ccc(O)cc2)[nH]c2nccnc12 | 81.4 |
| CC(C)n1cnc2c(Nc3cccc(Cl)c3)nc(NCCO)nc21 | 97.1 |
| C[C@@H](N)[C@H]1CC[C@H](C(=O)Nc2ccncc2)CC1 | 93.3 |
| CC(C)(C)c1nc2c3cc[nH]c(=O)c3c3cc(F)ccc3c2[nH]1 | 82.1 |
| N#C/C(=C(/N)SC1C=CC=CC1)c1cccc(C(O)c2ccncc2)c1 (stereo not shown) | 97.7 |
| O=C(c1ccccc1)c1ccc(N2CCOCC2)cc1O | 91.8 |
| N#CC(c1ccnc(NCCc2cccnc2)n1)c1nc2ccccc2s1 (stereo not shown) | 96.5 |
| Nc1nc(Nc2ccc(S(N)(=O)=O)cc2)nn1C(=S)Nc1c(F)cccc1F | 29 |
| O=C(O)/C=C/c1cc(Br)c(Br)c(Br)c1Br | 105 |

Repeated from above (sample 3):
| target | remaining binding |
| --- | --- |
| Phosphatidylinositol 4-kinase beta (PI4KB, Homo sapiens, UniProt Q9UBF8) | 100% |
| Protein-tyrosine kinase 2-beta (PTK2B, Homo sapiens, UniProt Q14289) | 85% |
| Glycogen synthase kinase-3 alpha (GSK3A, Homo sapiens, UniProt P49840) | 75% |
| Serine/threonine-protein kinase Sgk1 (SGK1, Homo sapiens, UniProt O00141) | 37% |
| Serine/threonine-protein kinase Chk1 (CHEK1, Homo sapiens, UniProt O14757) | 97% |
| Membrane-associated tyrosine- and threonine-specific cdc2-inhibitory kinase (PKMYT1, Homo sapiens, UniProt Q99640) | 75% |
| Ankyrin repeat and protein kinase domain-containing protein 1 (ANKK1, Homo sapiens, UniProt Q8NFD2) | 57% |
| Mitogen-activated protein kinase 3 (MAPK3, Homo sapiens, UniProt P27361) | 100% |
| Focal adhesion kinase 1 (PTK2, Homo sapiens, UniProt Q05397) | 100% |
| Tyrosine-protein kinase receptor TYRO3 (TYRO3, Homo sapiens, UniProt Q06418) | 100% |
| Ephrin type-B receptor 3 (EPHB3, Homo sapiens, UniProt P54753) | 100% |
| ALK tyrosine kinase receptor (ALK, Homo sapiens, UniProt Q9UM73) | 75% |
